Published values from different studies.
Lines come from different studies, so protocols differ. ± gives the spread as reported.
Cell line: HeLa

SMILES	assay	test system	conditions	scale	quantity	value
CO.Cc1ccc2c(Cl)cc(Cl)c([O-])c2n1.Cc1ccc2c(Cl)cc(Cl)c([O-])c2n1.[Co+2].c1ccc2nc3c4cccnc4c4ncccc4c3nc2c1			0.80 nM, 24 h		mitochondrial membrane potential	decreased
O=[N+]([O-])c1ccc(NC2=N[N+](=Cc3cccs3)[Pt-]([Cl])([Cl])[S]2)cc1	altered cell morphology, microscopy		confluent cultures		minimal cytotoxic concentration	> 100 µM
CC[C@H](C(=O)N1CCCC[C@H]1C(=O)O[C@H](CCc1ccc(OC)c(OC)c1)c1cccc(OCC(=O)NCCC(=O)N2CCN(CCCOc3cc4c(Nc5ccc(F)c(Cl)c5)ncnc4cc3OC)CC2)c1)c1cc(OC)c(OC)c(OC)c1	annexin V/PI flow cytometry		1 µM, 48 h, DMSO 12.4%		apoptotic and dead cells	36.4%
CNC(=O)c1c(C)oc2cc(Oc3ncnc4cc(OC)c(OCCCCCCC(=O)NO)cc34)ccc12	annexin V/7-AAD flow cytometry		0.75 µM, 48 h		apoptotic cells	7.69%
CC(=O)N[C@@H](CC1CCCCC1)C(=O)N[C@H]1CSSC[C@@H](C(=O)N[C@@H](CCCNC(=N)N)C(N)=O)NC(=O)[C@H](CC2CCCCC2)NC(=O)[C@H](CCCNC(=N)N)NC(=O)[C@H](CCCNC(=N)N)NC(=O)[C@H](CC2CCCCC2)NC(=O)[C@H](CC(C)C)NC(=O)[C@H](CCCNC(=N)N)NC(=O)[C@@H](NC(=O)[C@H](CC2CCCCC2)NC(C)=O)CSSC[C@@H](C(=O)N[C@@H](CCCNC(=N)N)C(N)=O)NC(=O)[C@H](CC2CCCCC2)NC(=O)[C@H](CCCNC(=N)N)NC(=O)[C@H](CCCNC(=N)N)NC(=O)[C@H](CC2CCCCC2)NC(=O)[C@H](CC(C)C)NC(=O)[C@H](CCCNC(=N)N)NC1=O	fluorescence of TAMRA label		EC50, 3 h		mitochondrial fraction share	~80%
COc1c(Cc2ccccc2O)c(O)c2c(c1Cc1ccccc1O)O[C@H](c1ccccc1)CC2=O	MTT		concentration not given, 72 h		cytotoxicity	inactive
N=C(N)NCCC[C@@H]1NC(=O)[C@H](CCCCN)NC(=O)[C@@H](Cc2ccc(O)cc2)NC(=O)[C@H](CC(=O)O)NC(=O)CNC1=O	MTT		48 h		TGI	> 100 µM
Cc1ccc2oc(=O)c(-c3nc4cnccc4[nH]3)cc2c1	RT-qPCR and immunoblot, item: c-Myc, N-Myc and CCND1		1 µM		expression	decreased
CC(=O)N[C@H](CCCNC(=N)N)C(=O)N[C@H](CCCCN)C(=O)N[C@H](Cc1ccc(O)cc1)C(=O)N[C@H](CS)C(N)=O			concentration not given, 24 h		decrease in EdU-positive cells	~50%
COc1ccc(CCC(=O)Nc2nc3ccc(Cl)cc3s2)cc1OC	shotgun lipidomics		10 µM, 18 h	relative to: DMSO	cholesteryl ester reduction	~40%
O=[N+]([O-])c1ccc(C=[N+]2N=C(Nc3ccccc3)[S][Pd-]2([Cl])[Cl])s1	altered cell morphology, microscopy		confluent cultures		minimal cytotoxic concentration	100 µM
O=C(O)COc1cc2c(OCC(=O)O)cc1Cc1cc(OCC(=O)O)c(cc1OCC(=O)O)Cc1cc(OCC(=O)O)c(cc1OCC(=O)O)Cc1cc(OCC(=O)O)c(cc1OCC(=O)O)Cc1cc(OCC(=O)O)c(cc1OCC(=O)O)Cc1cc(OCC(=O)O)c(cc1OCC(=O)O)C2	CCK-8		concentration not given, 24 h		viability	no effect
COc1cc(C(=O)c2[nH]c(N)nc2-c2cccs2)cc(OC)c1OC	item: phospho-histone H3		75 nM, 12 h		mitotic cells	13 ± 0.3%
O=c1c(/C=N/NC(=S)N/N=C/c2cc(Cl)ccc2O)coc2ccccc12	DCFDA flow cytometry		0.1 µM, 24 h	relative to: untreated cells	reduction in H2O2 level	~15%
CCc1ccc(C2=C3C(C)=CC(C)=[N+]3[B-](F)(F)n3c(C)cc(C)c32)cc1	confocal microscopy		concentration not given, 1 h, 37 °C, with: Lipi-Blue 500 nM		Pearson's correlation coefficient	0.97
S=C(N/N=C/c1ccc(-c2ccccc2)s1)Nc1ccccc1	altered cell morphology, microscopy		confluent cultures		cytotoxic concentration	≥ 20 µM
C=C1C(=O)OC2C=C(C)CCC=C(C(=O)OC(C)C(C)(O)C(=O)OC3C(OC(C)=O)C(C(=O)OC)=CCCC(C)=CC4OC(=O)C(=C)C43)CC(OC(=O)C(C)=CC)C12 (centres unmarked)	PI flow cytometry		3 µM, 48 h		G1 phase cells	40.1%
O=C(Cc1ccc(-c2ccc(OCCN3CCOCC3)cc2)cn1)NCc1ccccc1F	cell growth or viability, CCK-8		48 h		IC50	0.26 µM
CC(C)[C@@H]1NC(=O)[C@H](Cc2ccc(OP(=O)(O)O)cc2)NC(=O)[C@H](CCCNC(=N)N)NC(=O)[C@H](CCCNC(=N)N)NC(=O)[C@@H]2CCCN2C(=O)[C@H]2CCCN2C(=O)[C@@H](CCCNC(=N)N)NC(=O)[C@H](Cc2ccc3ccccc3c2)NC(=O)[C@H](Cc2ccccc2)NC(=O)[C@H](CC(N)=O)NC1=O	flow cytometry	NF-labelled via miniPEG-Lys at Asn	5 µM, 2 h	relative to: CPP9 cyclo(fΦRrRrQ) as 100%	cytosolic entry efficiency	49%
O=[N+]([O-])c1ccc(NC2=N[N+](=Cc3cccs3)[Pd-]([Cl])([Cl])[S]2)cc1	altered cell morphology, microscopy		confluent cultures		minimal cytotoxic concentration	> 100 µM
CC(C)(C)c1cc2c(O)c(c1)Cc1cc(C(C)(C)C)cc(c1OCC(=O)Nc1cncc3ccccc13)Cc1cc(C(C)(C)C)cc(c1O)Cc1cc(C(C)(C)C)cc(c1OCC(=O)Nc1cncc3ccccc13)COC2	cell growth or viability, MTT		15 µM, 72 h		inhibition	82%
S=c1n(-c2ccccc2)c2c3ccccc3nc3[n+]2[n]1[Ir-3]12([S]3)([c]3ccccc3-c3cccc[n+]31)[c]1ccccc1-c1cccc[n+]12				relative to: IC50 dark over IC50 light	phototoxicity index	> 3330
CC(=O)N[C@@H](CCCCN)C(=O)N[C@@H](CCCCN)C(=O)N[C@@H](CCCCN)C(=O)N[C@@H](CCCCN)C(=O)N[C@@H](CCCCN)C(=O)N[C@@H](CCCCN)C(=O)N[C@@H](CCCCN)C(=O)N[C@@H](CCCCN)C(=O)N[C@@H](CCCCN)C(=O)N[C@@H](CCCCN)C(=O)N[C@@H](CCC(N)=O)C(=O)N[C@@H](Cc1c[nH]c2ccccc12)C(=O)N[C@@H](CCC(N)=O)C(=O)N[C@@H](Cc1c[nH]c2ccccc12)C(=O)N[C@@H](CCC(N)=O)C(=O)N[C@@H](Cc1c[nH]c2ccccc12)C(=O)N[C@@H](CCC(N)=O)C(=O)N[C@@H](Cc1c[nH]c2ccccc12)C(=O)N[C@@H](CCC(N)=O)C(=O)N[C@@H](Cc1c[nH]c2ccccc12)C(=O)N[C@@H](CCC(N)=O)C(=O)N[C@@H](Cc1c[nH]c2ccccc12)C(=O)N[C@@H](CCC(=O)O)C(=O)N[C@@H](CCC(=O)O)C(=O)N[C@@H](CCC(=O)O)C(N)=O		FITC co-assembly	20 µM, endocytosis inhibition, with: methyl-β-cyclodextrin 5 µM pre-incubation		cellular uptake	no inhibition
COc1cc2c(=O)c(-c3ccc4c(c3)OCO4)coc2c2c1OC(C)(C)C=C2	annexin V/PI flow cytometry		10 µM, 48 h		apoptotic cells	43.8%
CC(C)CCOc1cc(C[n+]2cn(CCC(C)C)c3ccccc32)c(OCCC(C)C)c2ccccc12	AP1 reporter		5 µM		reporter activity	decreased
CC(C)(C)c1cc2c(O)c(c1)Cc1cc(C(C)(C)C)cc(c1OCC(=O)NCc1cccnc1)Cc1cc(C(C)(C)C)cc(c1O)Cc1cc(C(C)(C)C)cc(c1OCC(=O)NCc1cccnc1)COC2	cell growth or viability, MTT		15 µM, 72 h		inhibition	64%
Cc1cc(/C=C2\CN(C(C)C)C/C(=C\c3cc(C)c(O)c(C)c3)C2=O)cc(C)c1O	annexin V/PI flow cytometry		10 µM, 24 h		apoptotic cells	26 ± 2.69%
NC(=S)N/N=C/c1cc(Cl)ccc1O	Western blot, item: phospho-ERK1/2		0.1 µM, 24 h		reduction in ERK1/2 phosphorylation	~10%
COc1cc([C@@H]2c3cc4c(cc3[C@@H](OCc3cc(-c5cc(C#N)cc(C#N)c5)no3)[C@H]3COC(=O)C23)OCO4)cc(OC)c1OC (some centres unmarked)	cell growth or viability, SRB		48 h		GI50	1.28 µM

Excerpt of the above:
SMILES	assay	test system	conditions	scale	quantity	value
CC(=O)N[C@@H](CCCCN)C(=O)N[C@@H](CCCCN)C(=O)N[C@@H](CCCCN)C(=O)N[C@@H](CCCCN)C(=O)N[C@@H](CCCCN)C(=O)N[C@@H](CCCCN)C(=O)N[C@@H](CCCCN)C(=O)N[C@@H](CCCCN)C(=O)N[C@@H](CCCCN)C(=O)N[C@@H](CCCCN)C(=O)N[C@@H](CCC(N)=O)C(=O)N[C@@H](Cc1c[nH]c2ccccc12)C(=O)N[C@@H](CCC(N)=O)C(=O)N[C@@H](Cc1c[nH]c2ccccc12)C(=O)N[C@@H](CCC(N)=O)C(=O)N[C@@H](Cc1c[nH]c2ccccc12)C(=O)N[C@@H](CCC(N)=O)C(=O)N[C@@H](Cc1c[nH]c2ccccc12)C(=O)N[C@@H](CCC(N)=O)C(=O)N[C@@H](Cc1c[nH]c2ccccc12)C(=O)N[C@@H](CCC(N)=O)C(=O)N[C@@H](Cc1c[nH]c2ccccc12)C(=O)N[C@@H](CCC(=O)O)C(=O)N[C@@H](CCC(=O)O)C(=O)N[C@@H](CCC(=O)O)C(N)=O		FITC co-assembly	20 µM, endocytosis inhibition, with: methyl-β-cyclodextrin 5 µM pre-incubation		cellular uptake	no inhibition
COc1cc2c(=O)c(-c3ccc4c(c3)OCO4)coc2c2c1OC(C)(C)C=C2	annexin V/PI flow cytometry		10 µM, 48 h		apoptotic cells	43.8%
CC(C)CCOc1cc(C[n+]2cn(CCC(C)C)c3ccccc32)c(OCCC(C)C)c2ccccc12	AP1 reporter		5 µM		reporter activity	decreased
CC(C)(C)c1cc2c(O)c(c1)Cc1cc(C(C)(C)C)cc(c1OCC(=O)NCc1cccnc1)Cc1cc(C(C)(C)C)cc(c1O)Cc1cc(C(C)(C)C)cc(c1OCC(=O)NCc1cccnc1)COC2	cell growth or viability, MTT		15 µM, 72 h		inhibition	64%
Cc1cc(/C=C2\CN(C(C)C)C/C(=C\c3cc(C)c(O)c(C)c3)C2=O)cc(C)c1O	annexin V/PI flow cytometry		10 µM, 24 h		apoptotic cells	26 ± 2.69%
